# Measured values collected from several papers.
# Lines come from different studies, so protocols differ. Values joined by “and” are separate records of one study, mostly repeats; a detail may differ. Numbers after ± are the reported error.
# U2AF2: U2AF2 148-342 (Homo sapiens, UniProt P26368)
# UniProt P26368, sequence (whole entry, looked up): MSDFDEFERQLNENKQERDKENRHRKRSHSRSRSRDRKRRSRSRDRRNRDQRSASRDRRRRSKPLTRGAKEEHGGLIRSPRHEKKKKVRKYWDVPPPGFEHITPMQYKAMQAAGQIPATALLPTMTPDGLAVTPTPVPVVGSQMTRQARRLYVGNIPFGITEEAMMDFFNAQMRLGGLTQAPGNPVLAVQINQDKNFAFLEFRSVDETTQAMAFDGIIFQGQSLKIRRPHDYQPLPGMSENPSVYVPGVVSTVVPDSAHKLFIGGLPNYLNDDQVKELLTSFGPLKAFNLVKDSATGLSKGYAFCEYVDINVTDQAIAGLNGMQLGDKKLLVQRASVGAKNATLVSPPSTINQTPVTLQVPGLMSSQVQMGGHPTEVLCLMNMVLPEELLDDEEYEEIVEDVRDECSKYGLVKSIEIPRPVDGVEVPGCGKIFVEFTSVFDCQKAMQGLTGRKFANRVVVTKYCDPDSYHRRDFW
# T1: TOA1/TOA2 1-286; 1-122 (Saccharomyces cerevisiae); chain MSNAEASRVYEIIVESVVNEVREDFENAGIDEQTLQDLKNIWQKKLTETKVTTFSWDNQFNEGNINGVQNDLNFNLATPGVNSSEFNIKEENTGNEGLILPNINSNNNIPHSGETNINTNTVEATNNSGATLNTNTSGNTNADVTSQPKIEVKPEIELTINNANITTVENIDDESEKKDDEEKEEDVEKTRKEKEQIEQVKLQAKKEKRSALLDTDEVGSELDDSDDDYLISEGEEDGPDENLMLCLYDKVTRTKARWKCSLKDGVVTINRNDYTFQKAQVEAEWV; chain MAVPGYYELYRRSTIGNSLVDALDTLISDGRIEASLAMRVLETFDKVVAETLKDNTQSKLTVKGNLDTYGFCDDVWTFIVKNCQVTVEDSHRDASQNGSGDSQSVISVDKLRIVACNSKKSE
# B1: PRPS2 (human); sequence looked up; chain PNIVLFSGSSHQDLSQRVADRLGLELGKVVTKKFSNQETSVEIGESVRGEDVYIIQSGCGEINDNLMELLIMINACKIASSSRVTAVIPCFPYARQDKKDKSRAPISAKLVANMLSVAGADHIITMDLHASQIQGFFDIPVDNLYAEPAVLQWIRENIAEWKNCIIVSPDAGGAKRVTSIADRLNVEFALIHKERKKANEVDRMVLVGDVKDRVAILVDDMADTCGTICHAADKLLSAGATKVYAILTHGIFSGPAISRINNAAFEAVVVTNTIPQEDKMKHCTKIQVIDISMILAEAIRRTHNGESVSYLFSHVPL
# B2: human RAB10; sequence looked up; chain MAKKTYDLLFKLLLIGDSGVGKTCVLFRFSDDAFNTTFISTIGIDFKIKTVELQGKKIKLQIWDTAGQERFHTITTSYYRGAMGIMLVYDITNGKSFENISKWLRNIDEHANEDVERMLLGNKCDMDDKRVVPKGKGEQIAREHGIRFFETSAKANINIEKAFLTLAEDILRKTPVKEPNSENVDISSGGGVTGWKSKCC
# B3: human CCT2; sequence looked up; chain ASLSLAPVNIFKAGADEERAETARLTSFIGAIAIGDLVKSTLGPKGMDKILLSSGRDASLMVTNDGATILKNIGVDNPAAKVLVDMSRVQDDEVGDGTTSVTVLAAELLREAESLIAKKIHPQTIIAGWREATKAAREALLSSAVDHGSDEVKFRQDLMNIAGTTLSSKLLTHHKDHFTKLAVEAVLRLKGSGNLEAIHIIKKLGGSLADSYLDEGFLLDKKIGVNQPKRIENAKILIANTGMDTDKIKIFGSRVRVDSTAKVAEIEHAEKEKMKEKVERILKHGINCFINRQLIYNYPEQLFGAAGVMAIEHADFAGVERLALVTGGEIASTFDHPELVKLGSCKLIEEVMIGEDKLIHFSGVALGEACTIVLRGATQQILDEAERSLHDALCVLAQTVKDSRTVYGGGCSEMLMAHAVTQLANRTPGKEAVAMESYAKALRMLPTIIADNAGYDSADLVAQLRAAHSEGNTTAGLDMREGTIGDMAILGITESFQVKRQVLLSAAEAAEVILRVDNIIKAAPRKRVPDHHPC
# B4: Reticulon-4 (human); sequence looked up; chain MEDLDQSPLVSSSDSPPRPQPAFKYQFVREPEDEEEEEEEEEEDEDEDLEELEVLERKPAAGLSAAPVPTAPAAGAPLMDFGNDFVPPAPRGPLPAAPPVAPERQPSWDPSPVSSTVPAPSPLSAAAVSPSKLPEDDEPPARPPPPPPASVSPQAEPVWTPPAPAPAAPPSTPAAPKRRGSSGSVDETLFALPAASEPVIRSSAENMDLKEQPGNTISAGQEDFPSVLLETAASLPSLSPLSAASFKEHEYLGNLSTVLPTEGTLQENVSEASKEVSEKAKTLLIDRDLTEFSELEYSEMGSSFSVSPKAESAVIVANPREEIIVKNKDEEEKLVSNNILHNQQELPTALTKLVKEDEVVSSEKAKDSFNEKRVAVEAPMREEYADFKPFERVWEVKDSKEDSDMLAAGGKIESNLESKVDKKCFADSLEQTNHEKDSESSNDDTSFPSTPEGIKDRSGAYITCAPFNPAATESIATNIFPLLGDPTSENKTDEKKIEEKKAQIVTEKNTSTKTSNPFLVAAQDSETDYVTTDNLTKVTEEVVANMPEGLTPDLVQEACESELNEVTGTKIAYETKMDLVQTSEVMQESLYPAAQLCPSFEESEATPSPVLPDIVMEAPLNSAVPSAGASVIQPSSSPLEASSVNYESIKHEPENPPPYEEAMSVSLKKVSGIKEEIKEPENINAALQETEAPYISIACDLIKETKLSAEPAPDFSDYSEMAKVEQPVPDHSELVEDSSPDSEPVDLFSDDSIPDVPQKQDETVMLVKESLTETSFESMIEYENKEKLSALPPEGGKPYLESFKLSLDNTKDTLLPDEVSTLSKKEKIPLQMEELSTAVYSNDDLFISKEAQIRETETFSDSSPIEIIDEFPTLISSKTDSFSKLAREYTDLEVSHKSEIANAPDGAGSLPCTELPHDLSLKNIQPKVEEKISFSDDFSKNGSATSKVLLLPPDVSALATQAEIESIVKPKVLVKEAEKKLPSDTEKEDRSPSAIFSAELSKTSVVDLLYWRDIKKTGVVFGASLFLLLSLTVFSIVSVTAYIALALLSVTISFRIYKGVIQAIQKSDEGHPFRAYLESEVAISEELVQKYSNSALGHVNCTIKELRRLFLVDDLVDSLKFAVLMWVFTYVGALFNGLTLLILALISLFSVPVIYERHQAQIDHYLGLANKNVKDAMAKIQAKIPGLKRKAE
Molecule,tested on,assay,test system,setting,scale,measurement,result
CCUACAUUU (ssRNA),U2AF2,sequencing of bound RNA,RNA,motif only,,Kd,12400 nM
plectin (human),CYB5R4 knockout human cells,"PP4 interaction, 3xFLAG-PP4C IP-MS",,concentration not given,relative to: CYB5R4 KO over parental,log2 fold change,0.78
QSARYRDTEL,"construct, MBP fusion, human SCRIB, PDZ 3-4",automated holdup,"peptide, purified PDZ protein","concentration not given, unit not given","relative to: biotin control resin, higher = stronger binding",binding intensity,0.472
CUGUUUUGU (ssRNA),U2AF2,sequencing of bound RNA,RNA,motif only,,Kd,1140 nM
milbemycin oxime,Saccharomyces cerevisiae,cell growth,"Pdr5 deleted, Cdr1 overexpressed",2^-3.966 µg/mL,,OD600,1.01 and 0.978 and 1.02
B1 (PRPS2),CYB5R4 knockout human cells,"PP4 interaction, 3xFLAG-PP4C IP-MS",,concentration not given,relative to: CYB5R4 KO over parental,log2 fold change,1.47
colistin,Escherichia coli,broth microdilution,clinical isolate RKI-No_581/16,,,MIC,≤ 0.5 µg/mL
QGRWDHETIV,"construct, MBP fusion, human SCRIB, PDZ 3-4",surface plasmon resonance,peptide,concentration not given,higher = stronger binding,normalised SPR binding response,16.5 normalised RU
maraviroc,,Western blot,"HIV-infected mice, somatosensory cortex","i.p., 120 mg/kg twice daily, 3 weeks post infection","relative to: HIV-infected untreated mice, increase",protein level,1.64 fold
B2 (human RAB10),CYB5R4 knockout human cells,"PP6 interaction, 3xFLAG-PP6C IP-MS",,concentration not given,relative to: CYB5R4 KO over parental,log2 fold change,-0.12
liraglutide,,,"Wistar rat, female, diet-induced obese, liver tissue","subcutaneous, dose not given, after 4 weeks treatment",,liver triglycerides,17 ± 1.3 mg/dL
colistin,Pseudomonas aeruginosa,,PA1102 PER-producing isolate,,,MIC,2 µg/mL
Peginesatide,UT7/EPO,"phosphorylation, agonist, measured: phospho-STAT5",,10 min,,EC50,0.597 nM
TASPAKETSF,"construct, MBP fusion, human SCRIB, PDZ 3-4",automated holdup,"peptide, purified PDZ protein","concentration not given, unit not given","relative to: biotin control resin, higher = stronger binding",binding intensity,0.677
B3 (human CCT2),PP6C (human),"co-immunoprecipitation, IP-MS",CYB5R4 knockout cells,concentration not given,relative to: CYB5R4 knockout over parental,log2 fold change,-0.24
AAAAAACAAAAAAAATCCTATAACCAGTTCTCCCGTCAAGTCAATCGGTCC (dsDNA; 5'-amino-C6 primer),"T1, TOA1/TOA2 1-286; 1-122 (Saccharomyces cerevisiae)",array,"double-stranded DNA, one strand shown",TFIIA alone,,Kd,95.9 ± 31.4 nM
B4 (Reticulon-4),CYB5R4 knockout human cells,"PP4 interaction, 3xFLAG-PP4C IP-MS",,concentration not given,relative to: CYB5R4 KO over parental,log2 fold change,-0.046
KPGKGSETVV,"construct, MBP fusion, human SCRIB, PDZ 3-4",surface plasmon resonance,peptide,concentration not given,higher = stronger binding,normalised SPR binding response,0 normalised RU

# Repeated from above:
Molecule,tested on,assay,test system,setting,scale,measurement,result
plectin (human),CYB5R4 knockout human cells,"PP4 interaction, 3xFLAG-PP4C IP-MS",,concentration not given,relative to: CYB5R4 KO over parental,log2 fold change,0.78
